# Experimental data of several laboratories.
# Every numbered part comes from another study and shows a few of its results, in no order.

# Sample 1 — technique: protein-binding microarray; form: double-stranded DNA, one strand shown; medium: in vitro; tested at: 940 nM top; setting: 60-bp whole probe; together with: salmon DNA 0.4 mg/ml; relative to: random background probes; direction: higher = stronger binding; all sequences stand within: GCCTAGCACT … GTCTTGATTCGCTTGACGCTGCTG
# Target: Interferon regulatory factor 5, full length, phosphomimetic (IRF5, Homo sapiens, UniProt Q13568-2, residues 1-514, S451D/S453D/S456D/S462D)
Strand,fitted relative affinity
TAGGTTTCGACTATCGGTTAGTGCTA,8.46 z-score
TAGGTTCCGGTTTCGGATAGTGCTAG,6.07 z-score
TAGAACTGAGATTGGATTAGTGCTAG,-0.31 z-score
TAGGATTCCTTATCCTTTAGTGCTAG,-0.0792 z-score
CATTACTAAAATTTCATACTGTGCTA,0.73 z-score
CATTTTCAATTTTTGCACTGTGCTAG,1.28 z-score

# Sample 2 — technique: protein binding microarray; form: double-stranded DNA, one strand shown; medium: in vitro; tested at: not given; relative to: not given; direction: higher = stronger binding
# Target: Histone acetyltransferase KAT6A, both winged helices, GST fusion (KAT6A, Homo sapiens, UniProt Q92794, residues 1-181)
# Setting: 8-mer, flanks averaged, mean of 2 arrays, mostly near background
# Residues (chain): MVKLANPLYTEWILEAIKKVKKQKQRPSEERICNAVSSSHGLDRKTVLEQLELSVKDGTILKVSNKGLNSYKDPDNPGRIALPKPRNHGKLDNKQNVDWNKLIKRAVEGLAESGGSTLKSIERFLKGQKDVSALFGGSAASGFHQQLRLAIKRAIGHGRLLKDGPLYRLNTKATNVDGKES
Strand,E-score
CAGATAAG,-0.0817
AGGTCTAA,-0.126
CCGGTATC,0.245
ACGTTGCA,-0.232
CAGCTCGG,0.0418
TGACCCAA,-0.276
AGTCACGA,-0.107
ATGTGGTA,-0.0422

# Sample 3 — technique: RNA Bind-n-Seq; form: RNA; medium: in vitro; tested at: not given; setting: RNA with constant flanks, ends assumed; relative to: input RNA pool; direction: higher = stronger binding
# Target: RING finger protein unkempt homolog, zinc fingers 1-6, GST-SBP tag (UNK, Homo sapiens, UniProt Q9C0B0, residues 30-357)
# Sequence of UniProt Q9C0B0 (30-357, looked up): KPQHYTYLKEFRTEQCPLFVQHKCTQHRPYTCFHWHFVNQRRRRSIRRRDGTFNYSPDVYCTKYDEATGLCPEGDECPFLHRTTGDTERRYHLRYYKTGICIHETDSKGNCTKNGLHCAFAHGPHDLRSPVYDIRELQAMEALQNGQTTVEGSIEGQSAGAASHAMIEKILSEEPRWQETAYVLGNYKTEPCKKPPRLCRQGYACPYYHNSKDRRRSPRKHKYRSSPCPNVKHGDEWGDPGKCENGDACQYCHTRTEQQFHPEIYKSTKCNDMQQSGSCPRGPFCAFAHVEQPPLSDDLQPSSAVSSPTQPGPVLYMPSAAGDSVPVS
# All sequences stand within: GGGAGUUCUACAGUCCGACGAUC … CAACAGAGGAUUGAGCAUCA
Strand,bound/input enrichment
AAGUCUUUGGGAAGCAGUGAUUUGAAAUUUUGAGGUGACAGGCUUUUAAGGUAUAUUUUGCCGCAUGGGUUGGCAAUCUACAGCAUGUGGGCCAAAUCCAGCCUGCUGCCUGUUUUUAUA,0.377 ratio
UCAGGGGGCACGCUGAGUGGCGGCAUUCUCUCCAGUGGCAAGGGAAAAUAUAGCAGGUCCGAAGUUCAAGCCGAUGUCCAAAAGGAAAUUUUCCCCAAAGACACAGCCAGUCUUGGUGCA,0.208 ratio
GUAAGAGGUGAGAAGGAAUCUUUAGAUCUUCGAAAGGAAAAAGAGACACUUGAGAAAAAACUCCGAGAUGCAAAUAAGGAACUUGAGAAAAACACUAACAAAAUUAAGCAGCUUUCUCAG,0.206 ratio
AAGGAUGCUUUCGAUAAAGGUUCACUUUUUGGAGGCUCUGUAAAACUGGCUCUUGCAAGCUCCGGAUAUGAAAAGAGCUGUGUGUUGUUCAAUUGUGCAGCCUUAGCUAGCCAAAUUGCA,0.221 ratio
GAAUGCGGGUGAUCGGCAUGGCUCGCCUGGUGCUCGGUCUGGUGAGCUGCACCUUCUUUCCCGCAGUCAGCGGUCUGUAUUCUUCUAGUGAUGAUGUCAUCGAGUUGACGCCAUCAAAUU,0.102 ratio

# Mixed results
Substance,target,assay,test system,conditions,how to read,quantity,result
"PhoQ, residues 284 288 289 292 302 303 MLMVEA","PhoP, residues 12 14 15 18 19 SQCLL (Escherichia coli, UniProt P23836)","Sort-seq, item: YFP reporter",E. coli,"PhoQ-PhoP variant library, together with: 10 µM Mg2+","relative to: high Mg2+ state, higher = stronger signaling",fold induction,9.36

# Excerpt of the above (sample 1):
Strand,fitted relative affinity
TAGAACTGAGATTGGATTAGTGCTAG,-0.31 z-score
TAGGATTCCTTATCCTTTAGTGCTAG,-0.0792 z-score
